# Published values from different studies.
# Each line is one published result; not all experiments were run side by side.
Compound,assay,system,conditions,endpoint,value
C[C@@H]1OC(=O)NN=C1c1ccc(-c2ccc(F)cc2)c(C(F)(F)F)c1,,"patients, phase I trial","oral, 5 mg once daily, any grade TEAE",patients with blood ALP increased,0%
Nc1nc2cc(-c3ccc4ncc(C(=O)N5CCOCC5)n4c3)ccc2o1,"refers to: Hypokalemia, any cause, grade ≥3",patients with advanced solid tumours,dose not given,patients with adverse events,0%
COc1c(OCCCN2CCOCC2)ccc2c1N=C(NC(=O)c1cnc(N)nc1)N1CCN=C21,refers to: Hyponatremia,patients with advanced malignancies,"intravenous, dose not given, any grade, all cohorts, added: gemcitabine",patients with adverse event,26%
CO[C@H]1C[C@@H]2CC[C@@H](C)[C@@](O)(O2)C(=O)C(=O)N2CCCC[C@H]2C(=O)O[C@H]([C@H](C)C[C@@H]2CC[C@@H](OC(=O)NCCOCCOCCOCCOCCOCCOCCOCCOCCC(=O)N3CCc4cc(Cn5nc(-c6ccc7oc(N)nc7c6)c6c(N)ncnc65)ccc4C3)[C@H](OC)C2)C[C@@H](O)[C@H](C)/C=C(\C)[C@@H](O)[C@@H](OC)C(=O)[C@H](C)C[C@H](C)/C=C/C=C/C=C/1C,refers to: treatment-emergent AEs,patients with advanced solid tumours,"intravenous, dose not given, grade ≥3, all doses",patients with AE,0%
C=CCNc1c(O)cc2c(O)c1C[C@@H](C)C[C@H](OC)[C@H](O)[C@@H](C)/C=C(\C)[C@H](OC(N)=O)[C@@H](OC)/C=C\C=C(/C)C(=O)N2,,unresectable or metastatic sarcoma,"intravenous, 400 mg/m^2, grade 3-4 lab change",patients with AST increase,16%
N[C@@H]1c2ccccc2OC12CCN(c1cnc3c(N4CCCc5ncccc54)n[nH]c3n1)CC2,,advanced solid tumour patients,"oral, 10 mg once daily",patients with grade ≥3 TEAE,33.3%
CC(=O)c1c(C)c2cnc(Nc3ccc(C4CCN(CCS(C)(=O)=O)CC4)cn3)nc2n(C2CCCC2)c1=O,,HR+/HER2- advanced breast cancer patients,"oral, dose not given, all grades, dose escalation, sample B patients",patients with AST increased,26.3%
O=C1Nc2cc3[nH]nc(-c4ccncc4)c3cc2CN1Cc1ccccc1,refers to: Rash,patients with advanced solid tumours,"intravenous, dose not given, schedules 1 and 2",patients with grade ≥3 TEAE,6%
CCN(CCO)CCCC(C)Nc1ccnc2cc(Cl)ccc12 (stereo not shown),refers to: Diarrhea grade 1,newly diagnosed glioblastoma patients,"oral, 400 mg/dose, with radiotherapy and temozolomide",patients with adverse event,29%
CN1CC[C@@H](c2c(O)cc(O)c3c(=O)cc(-c4ccc(C(F)(F)F)cc4Cl)oc23)[C@@H]1CO,refers to: Neutropenia,B-cell malignancies or AML,"oral, 50 mg, continuous dosing",patients with adverse event,0%

# For quick reference, copied from above:
Compound,assay,system,conditions,endpoint,value
CO[C@H]1C[C@@H]2CC[C@@H](C)[C@@](O)(O2)C(=O)C(=O)N2CCCC[C@H]2C(=O)O[C@H]([C@H](C)C[C@@H]2CC[C@@H](OC(=O)NCCOCCOCCOCCOCCOCCOCCOCCOCCC(=O)N3CCc4cc(Cn5nc(-c6ccc7oc(N)nc7c6)c6c(N)ncnc65)ccc4C3)[C@H](OC)C2)C[C@@H](O)[C@H](C)/C=C(\C)[C@@H](O)[C@@H](OC)C(=O)[C@H](C)C[C@H](C)/C=C/C=C/C=C/1C,refers to: treatment-emergent AEs,patients with advanced solid tumours,"intravenous, dose not given, grade ≥3, all doses",patients with AE,0%
